Experimental data pooled from the literature.
Compare with care: the assays were run in different laboratories. ± gives the spread as reported.

`NC[C@@H]1O[C@H](O[C@H]2[C@@H](O)[C@H](O[C@@H]3[C@@H](O)[C@H](N)C[C@H](N)[C@H]3O[C@H]3O[C@H](CO)[C@@H](SCCF)[C@H](O)[C@H]3N)O[C@@H]2CO)[C@H](N)[C@@H](O)[C@@H]1O` gave an IC50 of 0.06 µg/mL (wild-type bacterial ribosome; cell-free translation, inhibitor).
The IC50 of `CC(=O)N[C@H]1CSC(=O)[C@H](Cc2ccccc2)NC(=O)[C@H](Cc2ccccc2)NC(=O)COCCOCCNC1=O` is reported as 332 nM (AgrC (Staphylococcus aureus); reporter gene, inhibitor; Staphylococcus aureus, AH1747 (MW2); 24 h).
The IC50 of `C=C[C@H]1CN2CCc3c([nH]c4cccc(OC)c34)[C@@H]2C[C@@H]1/C(=C\OC)C(=O)OC` is reported as 1.33 µg/mL (rabbit anti-mitragynine polyclonal antibody; antigen binding, competitor, competitive indirect ELISA; 0.001 to 50.0 µg/mL).
`CO[C@H]1[C@H](O)[C@@H](N)[C@@H](O[C@H]2[C@H](O[C@@H]3O[C@H](CO)[C@@H](O[C@H]4O[C@@H](CN)[C@@H](O)[C@H](O)[C@H]4N)[C@H]3O)[C@@H](O)[C@H](N)C[C@@H]2N)O[C@@H]1CO` has an IC50 of 242 ± 6.2 µg/mL (Mycobacterium smegmatis ribosome G1491C; translation, cell-free luciferase synthesis).
With `CCS(=O)(=O)[C@H]1[C@H](O)[C@@H](N)[C@@H](O[C@H]2[C@H](O[C@@H]3O[C@H](CO)[C@@H](O[C@H]4O[C@@H](CN)[C@@H](O)[C@H](O)[C@H]4N)[C@H]3O)[C@@H](O)[C@H](N)C[C@@H]2N)O[C@@H]1CO` the IC50 was 175 µg/mL (bacterial hybrid ribosome, human mitochondrial A1555G A site; cell-free translation, inhibitor).
For `COCOC[C@H]1O[C@H](O[C@H]2[C@H](O[C@@H]3O[C@H](CO)[C@@H](O[C@H]4O[C@@H](CN)[C@@H](O)[C@H](O)[C@H]4N)[C@H]3O)[C@@H](O)[C@H](N)C[C@@H]2N)[C@H](N)[C@@H](O)[C@@H]1OCOC`, the IC50 was > 700 µg/mL (Mycobacterium smegmatis ribosome G1491C; translation, cell-free luciferase synthesis).
`CCCCCCCCCCCCCCCC(=O)NCCCC[C@H](NC(=O)[C@H](CCCNC(=N)N)NC(=O)[C@H](Cc1ccc(O)cc1)NC(=O)[C@H](CC(C)C)NC(=O)[C@H](CCCNC(=N)N)NC(=O)CNS(=O)(=O)c1ccc(N)cc1)C(N)=O` has an IC50 of 19.5 ± 2.77 nM (70S ribosome (Escherichia coli); protein synthesis, cell-free translation; 4 h, 37 °C).
`CC[C@@H](C)[C@@H](NC(=O)[C@@H](CCCCN)NC(=O)[C@H](NC(=O)[C@@H](CCC(N)=O)NC(=O)[C@@H](CCCNC(=N)N)NC(=O)[C@@H](CC(C)C)NC(=O)CNC(=O)[C@@H](Cc1ccccc1)NC(=O)CNC(=O)[C@@H](Cc1ccc(O)cc1)NC(=O)CNC(=O)[C@@H](CCCCN)NC(=O)[C@H](NC(=O)[C@@H](Cc1ccccc1)NC(=O)[C@H](NC(=O)[C@@H](CC(=O)O)NC(=O)[C@H](N)CCCNC(=N)N)C(C)C)[C@H](C)O)[C@H](C)CC)C(=O)N[C@H](Cc1c[nH]c2ccccc12)C(=O)N[C@H](Cc1ccccc1)C(=O)N[C@H](CCC(N)=O)C(=O)N[C@H](CC(N)=O)C(=O)N[C@H](CCCNC(=N)N)C(=O)N[C@H](CCCNC(=N)N)C(=O)N[C@H](CCSC)C(=O)N[C@H](CCCCN)C(=O)N[C@H](Cc1c[nH]c2ccccc12)C(=O)N[C@H](CCCCN)C(=O)N[C@H](CCCCN)C(=O)O` gave an IC50 of 2100 nM (cell death; PI staining flow cytometry; MEC1; 90 min).
With `CCO[C@H]1[C@H](O)[C@@H](N)[C@@H](O[C@H]2[C@H](O[C@@H]3O[C@H](CO)[C@@H](O[C@H]4O[C@@H](CN)[C@@H](O)[C@H](O)[C@H]4N)[C@H]3O)[C@@H](O)[C@H](N)C[C@@H]2N)O[C@@H]1CO` the IC50 was 259 ± 31.7 µg/mL (Mycobacterium smegmatis ribosome G1491C; translation, cell-free luciferase synthesis).
The IC50 of `CC[C@@H](C)[C@@H](NC(=O)[C@@H](CCCCN)NC(=O)[C@H](NC(=O)[C@@H](CCC(N)=O)NC(=O)[C@H](N)CCCNC(=N)N)[C@H](C)CC)C(=O)N[C@H](Cc1c[nH]c2ccccc12)C(=O)N[C@H](Cc1ccccc1)C(=O)N[C@H](CCC(N)=O)C(=O)N[C@H](CC(N)=O)C(=O)N[C@H](CCCNC(=N)N)C(=O)N[C@H](CCCNC(=N)N)C(=O)N[C@H](CCSC)C(=O)N[C@H](CCCCN)C(=O)N[C@H](Cc1c[nH]c2ccccc12)C(=O)N[C@H](CCCCN)C(=O)N[C@H](CCCCN)C(=O)N[C@H](CO)C(=O)N[C@H](Cc1c[nH]c2ccccc12)C(=O)N[C@@H](C(=O)N[C@H](Cc1c[nH]c2ccccc12)C(=O)N[C@H](CCC(=O)O)C(=O)N[C@H](CCCCN)C(=O)N[C@H](CCCCN)C(=O)N[C@H](CC(C)C)C(=O)N[C@H](CCC(=O)O)C(=O)N[C@@H](C(=O)N[C@H](C)C(=O)N[C@@H](C(=O)N[C@H](CC(N)=O)C(=O)N[C@H](CC(C)C)C(=O)N[C@H](C)C(=O)N[C@H](Cc1c[nH]c2ccccc12)C(=O)N[C@@H](C(=O)N[C@H](C)C(=O)NCC(=O)N[C@H](CC(N)=O)C(=O)N[C@H](CO)C(=O)N[C@H](CC(N)=O)C(=O)N[C@H](CCCCN)C(=O)N[C@H](Cc1c[nH]c2ccccc12)C(=O)N[C@@H](C(=O)N[C@H](Cc1c[nH]c2ccccc12)C(=O)N[C@H](CCCCN)C(=O)O)[C@H](C)O)[C@H](C)O)C(C)C)[C@H](C)O)[C@H](C)O` is reported as 1600 nM (cell death; PI staining flow cytometry; MEC1; 90 min).
`CC[S+]([O-])C1C(CO)OC(OC2C(N)CC(N)C(O)C2OC2OC(CO)C(OC3OC(CN)C(O)C(O)C3N)C2O)C(N)C1O` (mixture of isomers) gave an IC50 of 0.5 µg/mL (wild-type bacterial ribosome; cell-free translation, inhibitor).
With `COCOC[C@H]1O[C@H](O[C@H]2[C@H](O[C@@H]3O[C@H](CO)[C@@H](O[C@H]4O[C@@H](CN)[C@@H](O)[C@H](O)[C@H]4N)[C@H]3O)[C@@H](O)[C@H](N)C[C@@H]2N)[C@H](N)[C@@H](O)[C@@H]1O` the IC50 was 83.7 ± 18 µg/mL (Mycobacterium smegmatis ribosome G1491A; translation, cell-free luciferase synthesis).
`CC(=O)N[C@H]1CNC(=O)[C@H](Cc2ccccc2)NC(=O)[C@H](Cc2ccccc2)NC(=O)CCCCCCCCNC1=O` gave an IC50 of 4740 nM (AgrC (Staphylococcus aureus); reporter gene, inhibitor; Staphylococcus aureus, AH1677 (USA300 LAC); 24 h).
`CC[C@H](C)[C@H](NC(=O)[C@@H](NC(=O)[C@@H](NC(=O)[C@H](CCCNC(=N)N)NC(=O)[C@@H](N)CCCCN)C(C)C)C(C)C)C(=O)N[C@@H](CC(N)=O)C(=O)N[C@@H](CCCCN)C(=O)N[C@@H](CC(=O)O)C(=O)N[C@H](C(=O)O)[C@@H](C)O` gave an IC50 of > 20000 nM (Mamu-B*010:01 (Chinese rhesus macaque); MHC binding, purified MHC).
With `NC[C@@H]1O[C@H](O[C@H]2[C@@H](O)[C@H](O[C@@H]3[C@@H](O)[C@H](N)C[C@H](N)[C@H]3O[C@H]3O[C@H](CO)[C@@H](CCO)[C@H](O)[C@H]3N)O[C@@H]2CO)[C@H](N)[C@@H](O)[C@@H]1O` the IC50 was 51 µg/mL (bacterial hybrid ribosome, human cytoplasmic A site; cell-free translation, inhibitor).
The IC50 of `CC[C@@H]1CN2CCc3c([nH]c4cccc(OC)c34)[C@@H]2C[C@@H]1/C(=C\OC)C(=O)OC` is reported as 5.96 µg/mL (anti-compound rabbit polyclonal IgG; antibody binding, competitive indirect ELISA; no pre-incubation).
`CC1OCC2OC(OC3C(N)CC(N)C(O)C3OC3OC(CO)C(OC4OC(CN)C(O)C(O)C4N)C3O)C(N)C(O)C2O1` (centres unmarked) has an IC50 of 180 ± 45.3 µg/mL (Mycobacterium smegmatis ribosome G1491C; translation, cell-free luciferase synthesis).
For `CC(C)CS[C@H]1[C@H](O)[C@@H](N)[C@@H](O[C@H]2[C@H](O[C@@H]3O[C@H](CO)[C@@H](O[C@H]4O[C@@H](CN)[C@@H](O)[C@H](O)[C@H]4N)[C@H]3O)[C@@H](O)[C@H](N)C[C@@H]2N)O[C@@H]1CO`, the IC50 was 150 µg/mL (bacterial hybrid ribosome, human mitochondrial A1555G A site; cell-free translation, inhibitor).
For `CCCCCCCCC(=O)NCc1ccc(O)c(OC)c1`, the IC50 was 0.143 µg/mL (mouse mAb 1-G12; antibody binding, indirect competitive ELISA; together with: coating antigen 5-OVA).
`NC[C@@H]1O[C@H](O[C@H]2[C@@H](O)[C@H](O[C@@H]3[C@@H](O)[C@H](N)C[C@H](N)[C@H]3O[C@H]3O[C@H](CO)[C@@H](OCCO)[C@H](O)[C@H]3N)O[C@@H]2CO)[C@H](N)[C@@H](O)[C@@H]1O` gave an IC50 of 152 ± 51.3 µg/mL (Mycobacterium smegmatis ribosome G1491C; translation, cell-free luciferase synthesis).
`CC(=O)N[C@H]1CSC(=O)[C@H](Cc2ccccc2)NC(=O)[C@H](Cc2ccccc2)NC(=O)CCCCCCCNC1=O` gave an IC50 of 34.8 nM (AgrC (Staphylococcus aureus); reporter gene, inhibitor; Staphylococcus aureus, AH1747 (MW2); 24 h).
`C[C@@H](NC(=O)[C@@H](N)Cc1ccc(O)cc1)C(=O)NCC(=O)N[C@@H](Cc1ccc(F)cc1)C(=O)N1CCN(C(=O)[C@H](Cc2ccc(F)cc2)NC(=O)CNC(=O)[C@@H](C)NC(=O)[C@@H](N)Cc2ccc(O)cc2)CC1` gave an IC50 of 0.48 ± 0.07 nM (mu opioid receptor, guinea pig; ileum contraction, agonist; guinea pig ileum LMMP).
`CC(C)S[C@H]1[C@H](O)[C@@H](N)[C@@H](O[C@H]2[C@H](O[C@@H]3O[C@H](CO)[C@@H](O[C@H]4O[C@@H](CN)[C@@H](O)[C@H](O)[C@H]4N)[C@H]3O)[C@@H](O)[C@H](N)C[C@@H]2N)O[C@@H]1CO` has an IC50 of 111 µg/mL (bacterial hybrid ribosome, human cytoplasmic A site; cell-free translation, inhibitor).
The IC50 of `CCCCO[C@H]1[C@H](O)[C@@H](N)[C@@H](O[C@H]2[C@H](O[C@@H]3O[C@H](CO)[C@@H](O[C@H]4O[C@@H](CN)[C@@H](O)[C@H](O)[C@H]4N)[C@H]3O)[C@@H](O)[C@H](N)C[C@@H]2N)O[C@@H]1CO` is reported as 90.9 ± 16.4 µg/mL (Mycobacterium smegmatis ribosome G1491A; translation, cell-free luciferase synthesis).
For `CCCS[C@H]1[C@H](O)[C@@H](N)[C@@H](O[C@H]2[C@H](O[C@@H]3O[C@H](CO)[C@@H](O[C@H]4O[C@@H](CN)[C@@H](O)[C@H](O)[C@H]4N)[C@H]3O)[C@@H](O)[C@H](N)C[C@@H]2N)O[C@@H]1CO`, the IC50 was 130 µg/mL (bacterial hybrid ribosome, human cytoplasmic A site; cell-free translation, inhibitor).
With `CC(=O)N[C@H]1CNC(=O)[C@H](Cc2ccccc2)NC(=O)[C@H](Cc2ccccc2)NC(=O)CCCCCCCNC1=O` the IC50 was 573 nM (AgrC (Staphylococcus aureus); reporter gene, inhibitor; Staphylococcus aureus, AH1747 (MW2); 24 h).

Some of these lines once more:
`CC(=O)N[C@H]1CSC(=O)[C@H](Cc2ccccc2)NC(=O)[C@H](Cc2ccccc2)NC(=O)CCCCCCCNC1=O` gave an IC50 of 34.8 nM (AgrC (Staphylococcus aureus); reporter gene, inhibitor; Staphylococcus aureus, AH1747 (MW2); 24 h).
`C[C@@H](NC(=O)[C@@H](N)Cc1ccc(O)cc1)C(=O)NCC(=O)N[C@@H](Cc1ccc(F)cc1)C(=O)N1CCN(C(=O)[C@H](Cc2ccc(F)cc2)NC(=O)CNC(=O)[C@@H](C)NC(=O)[C@@H](N)Cc2ccc(O)cc2)CC1` gave an IC50 of 0.48 ± 0.07 nM (mu opioid receptor, guinea pig; ileum contraction, agonist; guinea pig ileum LMMP).
